Measured values of several laboratories.
Every numbered part comes from another study and shows a few of its results, in no order.

Block 1 — method: protein binding microarray; form: double-stranded DNA, one strand shown; medium: in vitro; tested at: not given; baseline: not given; direction: higher = stronger binding
Target: Histone acetyltransferase KAT6A, winged helix 2, GST fusion (KAT6A, Homo sapiens, UniProt Q92794, residues 85-181)
Setting: 8-mer, flanks averaged, mean of 2 arrays, mostly near background
Target sequence (chain): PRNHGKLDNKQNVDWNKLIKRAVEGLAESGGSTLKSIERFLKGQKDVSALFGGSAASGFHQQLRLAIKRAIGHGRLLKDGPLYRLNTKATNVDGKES
With `CGGGTCAC` the E-score was 0.044.
The E-score of `AACGGCTC` is reported as -0.0365.
`CCTGGATA` has an E-score of 0.00763.
`ATCGCCGG` gave an E-score of 0.187.
The E-score of `CGAGTACG` is reported as -0.0512.
`CAAGTAAA` has an E-score of -0.0906.
With `GTTGGTAA` the E-score was -0.0963.
With `GCTCCGCC` the E-score was 0.287.
For `ACCGGCAC`, the E-score was 0.164.
`ATAGGTAG` has an E-score of -0.296.
`CGACGAGA` has an E-score of -0.0351.
The E-score of `AACAAATT` is reported as -0.00769.
With `CCGGATCA` the E-score was 0.193.
For `AATCGGGT`, the E-score was 0.0607.
`ACACCTCC` gave an E-score of -0.0768.
For `TAGGCGCA`, the E-score was 0.124.
With `CATATTAG` the E-score was -0.0278.
`ACGAATAA` has an E-score of -0.0271.
With `CCTCCGAC` the E-score was 0.0809.
The E-score of `CAGTAATG` is reported as -0.0158.
`CGTCACAC` gave an E-score of -0.0159.
`CGAGCTCG` gave an E-score of 0.362.
With `GAGATCAA` the E-score was 0.0262.
For `AGGTGACC`, the E-score was -0.176.

Block 2 — method: RNA Bind-n-Seq; form: RNA; medium: in vitro; tested at: 200 nM; setting: whole 134-nt RNA, ends assumed; with: 150 mM LiCl; baseline: input library; direction: higher = stronger binding; each molecule: 7-deaza-guanosine replaces G
Target: Fragile X messenger ribonucleoprotein 1, C-terminal low-complexity region (Fmr1, Mus musculus, UniProt P35922)
Shared flanks, not repeated: GGGAGUUCUACAGUCCGACGAUC … UGGAAUUCUCGGGUGUCAAGG
`GCAGGAAGUAAAAACAAAUGGAAAUGAUUCGGAUAGUGGCAGGGGUGGGGGUUGCUAAGGAAAGGGUGGGAUGGGAGUGGGUAAAGAGUU` gave a log2 enrichment of 1.43.
For `GUCCUGUGCUACACAUCGUAUGUACCGAAUCGGGGAAAAAGGGGAAAAAGGAAAAAGGAAAGUAUUAUGUUACGCCGUUCGGAUCUGCAC`, the log2 enrichment was 0.286.
The log2 enrichment of `UCAAGUCCUGUGCUACACAUCGUAUGUACCGAAUCGGGAGGGAGGGAAAAAGGGAAAGUAUUAUGUUACGCCGUUCGGAUCUGCACUUCC` is reported as -0.599.
`CUCAAGUCCUGUGCUACACAUCGUAUGUACCGAAUCGGGCCGGCCGGGGCCGGAAAGUAUUAUGUUACGCCGUUCGGAUCUGCACUUCCA` has a log2 enrichment of 1.41.
The log2 enrichment of `AAGUCCUGUGCUACACAUCGUAUGUACCGAAUCGGAAAAAAAGGUUUUUUUGGAGGAAAGUAUUAUGUUACGCCGUUCGGAUCUGCACUU` is reported as -3.19.
`UCAAGUCCUGUGCUACACAUCGUAUGUACCGAAUCGGUGGUUUUUUUGGUUUGGAAAGUAUUAUGUUACGCCGUUCGGAUCUGCACUUCC` gave a log2 enrichment of -1.36.
The log2 enrichment of `CAAGUCCUGUGCUACACAUCGUAUGUACCGAAUCGGGAAAGGGAAAGGGUUUGGGAAAGUAUUAUGUUACGCCGUUCGGAUCUGCACUUC` is reported as -1.67.
With `AGUCCUGUGCUACACAUCGUAUGUACCGAAUCAAACCCAAAUUUAAACCCCCCCAAAAAAGUAUUAUGUUACGCCGUUCGGAUCUGCACU` the log2 enrichment was 1.16.
For `UCCUGUGCUACACAUCGUAUGUACCGAAUCGGGGUUUUUUGGGUUUUUUGGGUUUUUUGGAAAGUAUUAUGUUACGCCGUUCGGAUCUGC`, the log2 enrichment was -0.108.
`AGUCCUGUGCUACACAUCGUAUGUACCGAAUCAAAUUUUUAAACCCAAACCCCCAAAAAAGUAUUAUGUUACGCCGUUCGGAUCUGCACU` has a log2 enrichment of 0.982.
`CACAGACAAGACGCACCCACACAGACACAGAGGGAAGGGGUUGGGAUGGGGACAGGGUGCACAGCAGGGCGGGGUAGGACCCCAGCCCCU` has a log2 enrichment of 0.398.

Block 3 — method: RNA Bind-n-Seq; form: RNA; medium: in vitro; tested at: 365 nM; baseline: no-protein control; direction: higher = stronger binding
Target: RNA binding protein fox-1 homolog 2, RRM domain, GST-SBP tag (RBFOX2, Homo sapiens, UniProt O43251-10, residues 100-194)
Setting: natural RNA segment, single round, ends assumed
Shared flanks, not repeated: GGGAGUUCUACAGUCCGACGAUC … UGGAAUUCUCGGGUGCCAA
Residues (chain): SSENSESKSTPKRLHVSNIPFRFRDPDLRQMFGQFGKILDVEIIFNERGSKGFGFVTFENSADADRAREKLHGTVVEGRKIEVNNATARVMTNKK
For `UGCUGGUAUGAUGGACCAGGCAGGCCAGGCAGACGGGAGGAGGGCUGGGAACAAGAGCAGCCCACUCUGCAGGAAUGCAACCUGAGCUGCAAACCAGGAGAAAAGGAGAC`, “RBNS enrichment (R)” read 0.928.
`GGUGGAUGCUGUGCUACGUGUGAAAUCUGUCUUUGCCAGGCCUGUCUCAGUGAUUAGCUUUUGGUAUGUCUGUAGCUUUCCUUGAAGUUGAAUAAAUGUUUCCCCCACUC`: “RBNS enrichment (R)” 0.579.
`GUGAAAAAAUACAAAUUAAGGACCUGUGUUCAUAGACAAUCUAAACUGUGUUUCUGAAGUUUGUGCACAUUUUUCUUCACUGUAAUGUUAUUUUACAGCUGUUUGUUAAA`: “RBNS enrichment (R)” 0.366.
`UUUUCGUAUUUGUGCAGAAAAACAAAUUAGGCCUAAAGUAUUGGUUUUUACCUGUACCAUCCACUCCGUGCCUUACUGUAUCCUGUCCUGUCACAGCGGCUGCAAACAGU` — result for “RBNS enrichment (R)”: 0.3.
`GGUGACACACUCCGUGGGGGAGGCUCUUCUCCCCUUCUUUCUCUAGUCUGGGUGGUGAACGGGCUGACACUGCUGUCACUGGUUCUUAGGACCUAAGGUGGUCCUCAUAA`: “RBNS enrichment (R)” 0.457.
`UGCCAUUAACAACAGCAGCCUAGAACUGACGCUUUAGUGGCCCGUCUGCAGAGCCAAAUCUUGCUCUUUCCAGCACAAUCGGGCAGCUCACGGAUUAGGAAUUAACAGCC`: “RBNS enrichment (R)” 0.324.
For `GUUGUAGGCCUGGCCUUUGCCCAGGCAAUGGACCUUUGAUGCGAGGAACCUUGCUACUUCCCCACUGGGGCCCCAAAUACCCUUACUCUCUCCUAGCCGCUGCUUUACAA`, “RBNS enrichment (R)” read 0.64.
For `AAAAACUUGUAAAAUAACUGACCCUCCCUUCCUGUCCGCCCUCUUCCCCUCUAAUGCUCACGCUCCCAACACAAGGUGGGCAGGGAGGCACCAUUCAGGAACCUGGACCA`, “RBNS enrichment (R)” read 0.491.
For `AGACAGACCCACAGCCCUGCCCUUGUCUCUGAGGCUGAAGACCCCCUGACUCCCAUGCUGUGCUUGCCGCUCUGAAACAAACAGAGGCUGGAACUUUGUGGUCCUUGCCG`, “RBNS enrichment (R)” read 0.35.
Under “RBNS enrichment (R)”, `UCUGCACACUCAAAGGCUAAACUGGUGUCAGUCCUUUUUUCCUUUGUUCCAAAUAAAAGAUUAAACCAAUGGCCUUAGGGUGUCUUUUGGACCAGGUUGAGGGGCAGGGG` is recorded as 0.402.
For `UGUCUUAAUGUCGGGGAGCAGCCUGGUGUCCUGCCCCAGGUGUCCGCAUUUUUGCAUGGUAAGGAAAAGGCUUACUUGCCCUUCAGCUCAUAAAAGCAGAAGGUGUGCUA`, “RBNS enrichment (R)” read 0.894.
Under “RBNS enrichment (R)”, `GGCAAUAUGGUUUGUAAAAUACAGAAACACUGCCCAAUUGUGAUGUUGUCAAUGGGCUCCUGAUGCCCAUAUUCUGGGGAACCUUAGAUACUGCCAUAGAAGCUAAAAGC` is recorded as 0.539.

Block 4 — method: aptamer microarray, sandwich; form: DNA with 2'F-ANA; medium: in vitro; tested at: 200 nM; with: Cy3 exosite-II aptamer, 400 nM; direction: higher = stronger binding; strand: GGTTGGTGTGGTTGG
Target: Prothrombin, mature alpha-thrombin (F2, Homo sapiens, UniProt P00734)
Setting: whole 15-mer aptamer, many near background
`2'F-ANA at 8 10 11 13 14`: “mean fluorescence intensity” 87.2 a.u.
`2'F-ANA at 3 4 5 6 7 8 9 13` — result for “mean fluorescence intensity”: 121 a.u.
For `2'F-ANA at 1 2 6 7 10 11 13 14`, “mean fluorescence intensity” read 53.1 a.u.
Under “mean fluorescence intensity”, `2'F-ANA at 1 2 10 13 14 15` is recorded as 52.3 a.u.
`2'F-ANA at 2 4 6 9 14 15`: “mean fluorescence intensity” 109 a.u.
Under “mean fluorescence intensity”, `2'F-ANA at 2 3 5 7 9 10 13` is recorded as 53.9 a.u.
`2'F-ANA at 3 4 5 7 9 10 11 13 15` — result for “mean fluorescence intensity”: 115 a.u.
`2'F-ANA at 2 4 5 7 9 12 14 15`: “mean fluorescence intensity” 48.9 a.u.
`2'F-ANA at 1 2 5 6 9 10` — result for “mean fluorescence intensity”: 45.2 a.u.
`2'F-ANA at 4 7 10 12 13 15` — result for “mean fluorescence intensity”: 92.6 a.u.
`2'F-ANA at 2 3 4 7 9 12 13 14 15` — result for “mean fluorescence intensity”: 299 a.u.
Under “mean fluorescence intensity”, `2'F-ANA at 1 3 5 6 7 10 11 12 15` is recorded as 48.7 a.u.
For `2'F-ANA at 4 5 9 13 14 15`, “mean fluorescence intensity” read 47.5 a.u.
For `2'F-ANA at 1 7 8 10 11 12 13 14 15`, “mean fluorescence intensity” read 57.4 a.u.
`2'F-ANA at 2 6 7 11 12 13 15`: “mean fluorescence intensity” 442 a.u.
Under “mean fluorescence intensity”, `2'F-ANA at 3 4 5 8 11 13 15` is recorded as 66.8 a.u.
`2'F-ANA at 2 4 9 13 14` — result for “mean fluorescence intensity”: 84.7 a.u.
`2'F-ANA at 1 3 4 5 6 7 8 10 14` — result for “mean fluorescence intensity”: 70 a.u.
`2'F-ANA at 2 3 5 6 8 9 11 15` — result for “mean fluorescence intensity”: 76.9 a.u.
`2'F-ANA at 2 3 7 8 9 13 15` — result for “mean fluorescence intensity”: 896 a.u.
`2'F-ANA at 1 2 4 8 9 12 14 15` — result for “mean fluorescence intensity”: 62 a.u.
